Assay results of several laboratories.
Compare with care: the assays were run in different laboratories. ± marks the error that the study gave.

| Structure (SMILES) | test system | setting | Cmax |
| --- | --- | --- | --- |
| C=C(C)[C@@H]1CC[C@]2(NCCN3CCS(=O)(=O)CC3)CC[C@]3(C)[C@H](CC[C@@H]4[C@@]5(C)CC=C(C6=CC[C@@](CF)(C(=O)O)CC6)C(C)(C)[C@@H]5CC[C@]43C)[C@@H]12 | healthy human volunteers | oral, 200 mg, capsule, moderate-fat meal, arithmetic mean | 1260 ng/mL |
| COc1ccnc(C[S+]([O-])c2nc3ccc(OC(F)F)cc3[nH]2)c1OC (stereo not shown) | human, CYP2C19 normal metabolizers, plasma | oral, 40 mg/day, day 5 | 3190 ± 3860 ng/mL |
| Cn1cnc2c(F)c(Nc3ccc(Br)cc3Cl)c(C(=O)NOCCO)cc21 | human cancer patients, plasma | oral, 75 mg, cycle 1 day 1 | 1500 ng/mL |
| CS(=O)(=O)n1cc2c(n1)CN([C@H]1CO[C@H](c3cc(F)ccc3F)[C@@H](N)C1)C2 | healthy male human, plasma | oral, 50 mg once weekly, day 1, fasted, geometric mean | 988 nM |
| Cc1cc(-c2nnc(N)nc2-c2ccc(F)cc2)cc(Cl)n1 | human patients, plasma | oral, 75 mg capsule, single dose, arithmetic mean | 429 ng/mL |
| C=C(C)[C@@H]1CC[C@]2(NCCN3CCS(=O)(=O)CC3)CC[C@]3(C)[C@H](CC[C@@H]4[C@@]5(C)CC=C(C6=CC[C@@](CF)(C(=O)O)CC6)C(C)(C)[C@@H]5CC[C@]43C)[C@@H]12 | human, plasma | oral, 200 mg once daily, day 14 | 1400 ng/mL |
| CN(C)Cc1c(C(=O)NCCOc2ccc(C(=O)NO)cc2)oc2ccccc12 | human, plasma | oral, 40 mg, single dose on day -3 | 94.9 ± 11.4 ng/mL |
| O=C(CCCCCCC(=O)Nc1ccccc1)NO | human, serum | oral, 500 mg three times daily, 3 days, median, with: idarubicin | 1620 nM |
| O=C1Nc2ccc(Cl)cc2[C@@](C#CC2CC2)(C(F)(F)F)O1 | healthy human, serum | oral, 400 mg single dose, with: ezetimibe | 620 ± 240 ng/mL |
| CC(C)(/C=C(\C#N)C(=O)N1CCC[C@@H](n2nc(-c3ccc(Oc4ccccc4)cc3F)c3c(N)ncnc32)C1)N1CCN(C2COC2)CC1 | human, plasma | oral, 100 mg single dose, median | 23 ng/mL |
| Cc1ccc(NC(=O)c2ccc(CN3CCN(C)CC3)cc2)cc1Nc1nccc(-c2cncc(-c3oncc3C)c2)n1 | older healthy human adults, plasma | oral, 75.0 mg single dose, fed, mean | 2750 ng/mL |
| CN(C)CC(c1ccc(O)cc1)C1(O)CCCCC1 (stereo not shown) | human, plasma | oral, 225 mg/day, day 15 | 421 ng/mL |
| Cc1nc(-c2ccc(OCC(C)C)c(C#N)c2)sc1C(=O)O | human, plasma | oral, 40 mg, with: verinurad 15 mg | 695 ng/mL |
| CCCCCCCCCCCCCCC[C@H](O)[C@@H](N)CO | human, phase I, plasma | intravenous, 840 mg/m^2, day 1, monotherapy | 23500 nM |
| C[C@@H]1CN(Cc2ncccn2)C[C@H]1c1nc2c(cnn2C2CCOCC2)c(=O)[nH]1 | human | oral, 5 mg twice daily, day 7 | 59.5 ng/mL |
| CN(Cc1cnc2nc(N)nc(N)c2n1)c1ccc(C(=O)N[C@@H](CCC(=O)O)C(=O)O)cc1 | human, plasma | oral, 10 mg, with: apremilast 30 mg twice daily | 427 ng/mL |
| CC(C)(Sc1ccncc1-c1ccc(C#N)c2ccccc12)C(=O)O | human male, plasma | oral, 2.5 mg once daily, day 7 or 21, arithmetic mean | 3.84 ng/mL |
| C#C[C@]1(CO)O[C@@H](n2cnc3c(N)nc(F)nc32)C[C@@H]1O | human, plasma | oral, 2.25 mg once daily, geometric mean, with: doravirine 100 mg once daily | 68.3 nM |
| CO[C@H]1C[C@@H]2CC[C@@H](C)[C@@](O)(O2)C(=O)C(=O)N2CCCC[C@H]2C(=O)O[C@H]([C@H](C)C[C@@H]2CC[C@@H](O)[C@H](OC)C2)CC(=O)[C@H](C)/C=C(\C)[C@@H](O)[C@@H](OC)C(=O)[C@H](C)C[C@H](C)/C=C/C=C/C=C/1C | healthy human subjects, whole blood | oral, 2 mg single dose, arithmetic mean, with: isavuconazole 200 mg once daily after loading | 8.5 ng/mL |

For quick reference, copied from above:
| Structure (SMILES) | test system | setting | Cmax |
| --- | --- | --- | --- |
| CC(C)(Sc1ccncc1-c1ccc(C#N)c2ccccc12)C(=O)O | human male, plasma | oral, 2.5 mg once daily, day 7 or 21, arithmetic mean | 3.84 ng/mL |
| C#C[C@]1(CO)O[C@@H](n2cnc3c(N)nc(F)nc32)C[C@@H]1O | human, plasma | oral, 2.25 mg once daily, geometric mean, with: doravirine 100 mg once daily | 68.3 nM |
